Assay results collected from several papers.
Compare with care: the assays were run in different laboratories.

C[C@](C(=O)NC1CCC(F)(F)CC1)(c1cncnc1)N(C(=O)[C@H](F)Cl)c1ccc(OC(F)(F)F)cc1 — CLint (mouse liver microsomes; concentration not given, pH 7.4): 71.6 µL/min/mg
C[C@H]1CN(C(=O)c2cn(-c3ccnc(N)n3)c3cc(C#CC4(O)CCCCC4)ccc23)CCN1 — CLint (human liver microsomes; 1 µM, pH 7.4): 25.8 µL/min/mg
O=C(CN1CN(c2ccccc2)C2(CCN(C(=O)c3ccc4[nH]ncc4c3)CC2)C1=O)Nc1ccccn1 — CLint (mouse liver microsomes): 600 µL/min/mg protein
O=C1CC[C@H](N2Cc3cc(-c4ccn5ncc(Cl)c5n4)ccc3C2=O)C(=O)N1 — CLint (human liver microsomes; 0.5 mg/mL protein): 2.2 µL/min/mg
CC(C)=CCc1cc(C(=O)/C=C/c2ccc(O)cc2)c(O)cc1O — CLint (phase I metabolism; dog liver microsomes): 13.9 µL/min/mg
O=C(CN1CN(c2ccccc2)C2(CCN(C(=O)c3cc4cn[nH]c4cn3)CC2)C1=O)NCC(F)(F)F — CLint (mouse liver microsomes): 85 µL/min/mg protein
O=C(NC1CCC(F)(F)CC1)C(c1cncnc1)N(C(=O)C(F)Cl)c1ccc(-c2cncs2)cc1 (stereo not drawn) — CLint (mouse liver microsomes; concentration not given, pH 7.4): 38.9 µL/min/mg
CN(CC(F)(F)F)C(=O)CN1CN(c2ccccc2)C2(CCN(C(=O)c3ccc4[nH]ncc4c3)CC2)C1=O — CLint (human liver microsomes): 34 µL/min/mg protein
Cc1ncsc1-c1ccc([C@@H]2CCCCCCNC(=O)C[C@@H]3N=C(c4ccc(cc4)OCCCCCC(=O)N[C@@H](C(C)(C)C)C(=O)N4C[C@H](O)C[C@H]4C(=O)N2)c2c(sc(C)c2C)-n2c(C)nnc23)cc1 — CLint (human liver microsomes; 1 µM, 37 °C): 300 mL/min/kg

Repeated from above:
CN(CC(F)(F)F)C(=O)CN1CN(c2ccccc2)C2(CCN(C(=O)c3ccc4[nH]ncc4c3)CC2)C1=O — CLint (human liver microsomes): 34 µL/min/mg protein
